# Measured values pooled from the literature.
# Numbers after ± are the reported error.
SMILES,assay,system,conditions,AUC(0-t)
CCCC[C@H](NC(C)=O)C(=O)N[C@H]1CCC(=O)NC[C@@H](C(=O)N[C@@H](Cc2c[nH]c3ccccc23)C(N)=O)NC(=O)[C@H](CCCNC(=N)N)NC(=O)[C@@H](Cc2ccccc2)NC(=O)[C@H](Cc2c[nH]cn2)NC1=O,,"CD Sprague-Dawley rat, female, plasma","subcutaneous, 1.0 mg/kg/day, day 14, truncated curve, 3 points",712 ng·h/mL
CC(=O)C=Cc1ccc(O)c(O)c1,,"normal-weight male C57BL/6J mice, brain","oral, 200 mg/kg, 0 to 12 h, low-fat diet",0.19 ± 0.022 nmol·min/g
CNCc1ccc(-c2[nH]c3cc(F)cc4c3c2CCNC4=O)cc1,,"human patients, plasma","oral, 160 mg once daily, day 1, 24 h, single dose, arithmetic mean",3050 ng·h/mL
Cc1ccc(NC(=O)c2ccc(CN3CCN(C)CC3)cc2)cc1Nc1nccc(-c2cncc(-c3oncc3C)c2)n1,,"healthy volunteers, plasma","oral, 25.0 mg once daily, day 7, 7-day dosing, mean",46000 ng·h/mL
CCCCC1(CCCC)CN(c2ccccc2)c2cc(SC)c(OCC(=O)N[C@@H](C(=O)NCC(=O)O)c3ccccc3)cc2S(=O)(=O)C1,,"human, plasma","oral, 10 mg, no breakfast",5.46 ng·h/mL
OCCc1ccc(O)cc1,,"normal-weight male C57BL/6J mice, brain","oral, 200 mg/kg, 0 to 12 h, low-fat diet",4.21 ± 0.2 nmol·min/g
CN1CCN(c2ccc3nc(-c4c(N)c5c(F)cccc5[nH]c4=O)[nH]c3c2)CC1,,"NOD/SCID mice, male, blood or plasma","oral, 30 mg/kg once daily, day 1",6080 ± 710 ng·h/mL
OCCc1ccc(O)c(O)c1,,"normal-weight male C57BL/6J mice, brain","oral, 200 mg/kg, 0 to 12 h, low-fat diet",0.024 ± 0.002 nmol·min/g
CCCCCN1C[C@H](O)[C@@H](O)[C@H](O)[C@@H]1CO,,"human, plasma","oral, 1000 mg, single dose, fasted, healthy volunteers",50000 ng·h/mL
CC[C@H](C)[C@@H]1NC(=O)[C@H](Cc2ccc(O)cc2)NC(=O)[C@@H](N)CSSC[C@@H](C(=O)N2CCC[C@H]2C(=O)N[C@@H](CC(C)C)C(=O)NCC(N)=O)NC(=O)[C@H](CC(N)=O)NC(=O)[C@H](CCC(N)=O)NC1=O,"microdialysis, radioimmunoassay","C57BL/6J male mice, wild type, amygdala extracellular fluid","intranasal, 12 µg, total area from zero",249 ± 69 pg·30 min/sample
CC(O)CCc1ccc(O)cc1 (stereo not drawn),,"male C57BL/6J mice, brain","oral, 200 mg/kg, 0 to 12 h, low-fat diet",18.8 ± 1.65 nmol·min/g
CNC(=O)c1ccc(-c2cnc3ncc(Cc4ccc5ncccc5c4)n3n2)cc1F,,human severe hepatic impairment,"oral, 200 mg single dose, adjusted geometric mean",7710 ng·h/mL
CS(=O)(=O)n1cc2c(n1)CN([C@H]1CO[C@H](c3cc(F)ccc3F)[C@@H](N)C1)C2,,"male human, plasma","oral, 200 mg, single dose, fasted, healthy volunteers",155 µM·h
COc1cc(CCC(C)=O)ccc1O,,"female C57BL/6J mice, brain","oral, 200 mg/kg, 0 to 12 h, low-fat diet",1.76 ± 0.27 nmol·min/g
CC(C)=CCC[C@](C)(O[C@@H]1O[C@H](CO)[C@@H](O)[C@H](O)[C@H]1O)[C@H]1CC[C@]2(C)[C@@H]1[C@H](O)C[C@@H]1[C@@]3(C)CC[C@H](O[C@@H]4O[C@H](CO)[C@@H](O)[C@H](O)[C@H]4O)C(C)(C)[C@@H]3CC[C@]12C,LC-MS/MS,"healthy female volunteers, serum","oral, 3 g fermented red ginseng",22 ± 15.5 ng·h/mL

# For quick reference, copied from above:
SMILES,assay,system,conditions,AUC(0-t)
OCCc1ccc(O)cc1,,"normal-weight male C57BL/6J mice, brain","oral, 200 mg/kg, 0 to 12 h, low-fat diet",4.21 ± 0.2 nmol·min/g
